Experimental data collected from several papers.
Protocols differ between the studies behind these lines. Numbers after ± are the reported error.
Cell line: PC-3

SMILES	test	setting	how to read	measurement	value
O=C(O)CCC(NP(=O)(O)OCCC[C@@H](NC(=O)CCC(NC(=O)c1ccc([18F])cc1)C(=O)O)C(=O)O)C(=O)O (stereo partly shown)		2 h		cell uptake	0.07 ± 0.02%
CSCC[C@H](NC(=O)[C@H](CC(C)C)NC(=O)[C@H](Cc1c[nH]cn1)NC(=O)CNC(=O)[C@@H](NC(=O)[C@H](C)NC(=O)[C@H](Cc1c[nH]c2ccccc12)NC(=O)[C@H](CCC(N)=O)NC(=O)CCCCCCCNC(=S)Nc1ccc(C[C@H]2CN(CC(=O)O)CCN(CC(=O)O)CCN2CC(=O)O)cc1)C(C)C)C(N)=O [copper-64 labelled]		1 nM, 37 °C		maximum internalization	896 fmol/mg
C[P+](c1ccccc1)(c1ccccc1)c1ccccc1	cell growth or viability, MTT	72 h		GI50	5.01 µM
CSCC[C@H](NC(=O)[C@H](CC(C)C)NC(=O)[C@H](Cc1c[nH]cn1)NC(=O)CNC(=O)[C@@H](NC(=O)[C@H](C)NC(=O)[C@H](Cc1c[nH]c2ccccc12)NC(=O)[C@H](CCC(N)=O)NC(=O)CNC(=O)[C@H](CO)NC(=O)CNC(=O)CCCCCCCNC(=O)CCC(=O)Nc1ccc(CNC23CNCCNCC(N)(CNCCNC2)CNCCNC3)cc1)C(C)C)C(N)=O [copper-64 labelled]		15 min	relative to: internalization at 2 h	internalization	43%
CC(C)C12OC1C1OC13C1(C)CCC4=C(COC4=O)C1CC1OC13C2OC(=O)CCCOC1OC(CO)C(O)C(O)C1O (stereo not shown)	cell growth, [3H]-thymidine incorporation	48 h, 20% oxygen normoxia		IC50	0.427 µM
COc1cc(C)c(OC)c(OC)c1OC	cell growth or viability, MTT	72 h		GI50	> 250 µM
Cc1nn(-c2ccccc2)c(O)c1C(c1ccccc1[N+](=O)[O-])c1c(C)nn(-c2ccccc2)c1O	cell growth or viability, MTT	48 h		IC50	> 40 µM
C=CCc1cc(OC)c(OC)c(OC)c1OC	cell growth or viability, MTT	72 h		GI50	> 250 µM
COc1ccc(C(c2c(C)nn(-c3ccccc3)c2O)c2c(C)nn(-c3ccccc3)c2O)cc1OC	cell growth or viability, MTT	48 h		IC50	26.6 µM
CSCC[C@H](NC(=O)[C@H](CC(C)C)NC(=O)[C@H](Cc1c[nH]cn1)NC(=O)CNC(=O)[C@@H](NC(=O)[C@H](C)NC(=O)[C@H](Cc1c[nH]c2ccccc12)NC(=O)[C@H](CCC(N)=O)NC(=O)CCCCCCCNC(=O)[C@@H](CO)NC(=O)[C@@H](CO)NC(=O)[C@@H](CCCCNC(=O)Cn1ccnc1[N+](=O)[O-])NC(=O)CN1CCN(CC(=O)O)CCN(CC(=O)O)CCN(CC(=O)O)CC1)C(C)C)C(N)=O [indium-111 labelled]		concentration not given, 8 h, normoxia		retained internalized radioactivity	35.3%
C=CCc1cc2c(c(OC)c1OC)OCO2	cell growth or viability, MTT	72 h		GI50	> 250 µM
Cc1nn(-c2ccccc2)c(O)c1C(c1cccc([N+](=O)[O-])c1)c1c(C)nn(-c2ccccc2)c1O	cell growth or viability, MTT	48 h		IC50	30.3 µM
CC/C=C\C/C=C\C/C=C\C/C=C\C/C=C\C/C=C\CCC(=O)Nc1ccn(C2OC(CO)C(O)C2(F)F)c(=O)n1 (stereo not shown)	NCI60 screen			CC50	67.8 µM
COc1cc(C)c(OC)c2c1OCO2	cell growth or viability, MTT	72 h		GI50	> 250 µM
O=C(O)CCC(NP(=O)(O)OCCC[C@@H](NC(=O)CCC(NC(=O)CCCCCNC(=O)CCCCCNC(=O)c1ccc([18F])cc1)C(=O)O)C(=O)O)C(=O)O (stereo partly shown)		1 h		cell uptake	0.14 ± 0.04%
CCCNC(=O)[C@H](CC(C)C)NC(=O)[C@H](Cc1c[nH]cn1)NC(=O)CNC(=O)[C@@H](NC(=O)[C@H](C)NC(=O)[C@H](Cc1c[nH]c2ccccc12)NC(=O)[C@H](CCC(N)=O)NC(=O)[C@@H](Cc1ccccc1)NC(=O)CCCCCNC(=O)CN1CCN(CC(=O)O)CCN(CC(=O)O)CCN(CC(=O)O)CC1)C(C)C [indium-111 labelled]		45 min, 37 °C		maximum internalization	14%
CSCC[C@H](NC(=O)[C@H](CC(C)C)NC(=O)[C@H](Cc1c[nH]cn1)NC(=O)CNC(=O)[C@@H](NC(=O)[C@H](C)NC(=O)[C@H](Cc1c[nH]c2ccccc12)NC(=O)[C@H](CCC(N)=O)NC(=O)CCCCCNC(=O)CCN(CCNC(=O)c1ccc(F)cc1)CCC(=O)NCCCC[C@@H]1NC(=O)[C@@H](Cc2ccc(O)cc2)NC(=O)[C@H](CC(=O)O)NC(=O)CNC(=O)[C@H](CCCNC(=N)N)NC1=O)C(C)C)C(N)=O [fluorine-18 labelled]		30 min, 37 °C	relative to: added radioactivity	cellular uptake	4.38 ± 0.17%
O=C(O)CCC(NP(=O)(O)OCCC[C@@H](NC(=O)CCC(NC(=O)CCCCCNC(=O)c1ccc([18F])cc1)C(=O)O)C(=O)O)C(=O)O (stereo partly shown)		2 h		cell uptake	0.08 ± 0.02%
CCCc1cc(OC)c2c(c1)OCO2	cell growth or viability, MTT	72 h		GI50	> 250 µM
[Cl][Au-][P+](c1ccccc1)(c1ccccc1)c1cc[cH-]c1.[Cl][Au-][P+](c1ccccc1)(c1ccccc1)c1cc[cH-]c1.[Cl][Ti+2][Cl]	cell growth or viability, XTT			IC50	18.9 µM
CSCC[C@H](NC(=O)[C@H](CC(C)C)NC(=O)[C@H](Cc1c[nH]cn1)NC(=O)CNC(=O)[C@@H](NC(=O)[C@H](C)NC(=O)[C@H](Cc1c[nH]c2ccccc12)NC(=O)[C@H](CCC(N)=O)NC(=O)CCCCCCCNC(=O)[C@@H](CO)NC(=O)[C@@H](CO)NC(=O)[C@@H](CO)NC(=O)CN1CCN(CC(=O)O)CCN(CC(=O)O)CCN(CC(=O)O)CC1)C(C)C)C(N)=O [indium-111 labelled]		concentration not given, 8 h, hypoxia		retained internalized radioactivity	41.4%
CCCCCCCCC[P+](c1ccccc1)(c1ccccc1)c1ccccc1	cell growth or viability, MTT	72 h		GI50	0.109 µM
COc1cc(/C=C(\C#N)C(=O)Nc2nnc(C(F)(F)F)s2)ccc1OC(=O)N1CCN(C(=O)CCCC(=O)NCCCC[C@@H]2NC(=O)[C@@H](Cc3ccc(O)cc3)NC(=O)[C@H](CC(=O)O)NC(=O)CNC(=O)[C@H](CCCNC(=N)N)NC2=O)CC1	cell growth or viability, MTT			GI50	60 µM
CSCC[C@H](NC(=O)[C@H](CC(C)C)NC(=O)[C@H](Cc1c[nH]cn1)NC(=O)CNC(=O)[C@@H](NC(=O)[C@H](C)NC(=O)[C@H](Cc1c[nH]c2ccccc12)NC(=O)[C@H](CCC(N)=O)NC(=O)CCCCCCCNC(=O)[C@@H](CCCCNC(=O)Cn1ccnc1[N+](=O)[O-])NC(=O)[C@@H](CCCCNC(=O)Cn1ccnc1[N+](=O)[O-])NC(=O)[C@@H](CCCCNC(=O)Cn1ccnc1[N+](=O)[O-])NC(=O)CN1CCN(CC(=O)O)CCN(CC(=O)O)CCN(CC(=O)O)CC1)C(C)C)C(N)=O [indium-111 labelled]		8 h	relative to: hypoxic over normoxic	hypoxia enhancement factor	3.29 ± 0.25
Cc1nn(-c2ccccc2)c(O)c1C(c1ccccc1O)c1c(C)nn(-c2ccccc2)c1O	cell growth or viability, MTT	48 h		IC50	> 40 µM

For quick reference, copied from above:
SMILES	test	setting	how to read	measurement	value
C=CCc1cc2c(c(OC)c1OC)OCO2	cell growth or viability, MTT	72 h		GI50	> 250 µM
Cc1nn(-c2ccccc2)c(O)c1C(c1cccc([N+](=O)[O-])c1)c1c(C)nn(-c2ccccc2)c1O	cell growth or viability, MTT	48 h		IC50	30.3 µM
